Assay results collected from several papers.
Each line is one published result; not all experiments were run side by side. Numbers after ± are the reported error.
GPR84: G-protein coupled receptor 84 (GPR84, Homo sapiens, UniProt Q9NQS5)
UniProt Q9NQS5, sequence (whole entry, looked up): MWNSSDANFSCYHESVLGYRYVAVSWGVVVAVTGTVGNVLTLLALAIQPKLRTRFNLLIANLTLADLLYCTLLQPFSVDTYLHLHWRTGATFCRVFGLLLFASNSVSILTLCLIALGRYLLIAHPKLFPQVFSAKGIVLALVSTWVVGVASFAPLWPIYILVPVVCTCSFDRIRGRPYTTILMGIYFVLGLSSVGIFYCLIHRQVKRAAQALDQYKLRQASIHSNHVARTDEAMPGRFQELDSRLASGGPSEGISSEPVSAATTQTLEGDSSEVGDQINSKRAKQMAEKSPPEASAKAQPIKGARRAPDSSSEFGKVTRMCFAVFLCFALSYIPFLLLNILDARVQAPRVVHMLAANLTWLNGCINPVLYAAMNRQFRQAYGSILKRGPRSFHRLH

CC(C)C[C@H](NC(=O)C[C@H](O)[C@H](CC(C)C)NC(=O)[C@H](Cc1c[nH]cn1)NC(=O)CNC(=O)[C@@H](NC(=O)[C@H](C)NC(=O)[C@H](Cc1c[nH]c2ccccc12)NC(=O)[C@H](CCC(N)=O)NC(=O)[C@@H](Cc1ccccc1)NC(=O)COCCOCCNC(=O)CCC(C(=O)O)N1CCN(CC(=O)O)CCN(CC(=O)O)CCN(CC(=O)O)CC1)C(C)C)C(N)=O (stereo partly drawn) [lutetium-177 labelled] — tissue uptake (BALB/c nu/nu mice, PC-3 xenograft tumour; 100 pmol, 1 h, with: PA 300 µg): 16.7 ± 1.2 %ID/g
N=C(N)NCCC[C@@H](NC(=O)CCOCCOCCNC(=O)[C@H](CCCCNC(=O)CC[C@H](NC(=O)c1ccc(NCc2cnc3nc(N)[nH]c(=O)c3n2)cc1)C(=O)O)NC(=O)CO/N=C/[C@H](F)[C@@H](O)[C@H](O)[C@H](O)CO)C(=O)NCC(=O)N[C@H](CC(=O)O)C(N)=O [fluorine-18 labelled] — stability time (radio-HPLC; room temperature): ≥ 4 h
C[C@@H](O)[C@@H](CO)NC(=O)[C@@H](CCCNC(=N)N)NC(=O)[C@@H]1CCCN1C(=O)[C@@H]1CSSC[C@H](NC(=O)[C@H](Cc2ccccc2)NC(=O)CN2CCN(CC(=O)O)CCN(CC(=O)O)CCN(CC(=O)O)CC2)C(=O)N[C@@H](Cc2ccc(O)cc2)C(=O)N[C@@H](Cc2ccccc2)C(=O)N[C@@H](CCC(N)=O)C(=O)N[C@@H](CC(N)=O)C(=O)N1 [gallium-68 labelled] — radiochemical purity (PBS; 2 h, 37 °C): > 99%
O=C(O)CC[C@H](NC(=O)N[C@@H](CCCCNC(=O)[C@H](Cc1ccc2ccccc2c1)NC(=O)CCCCCNC(=O)CN1CCN(CC(=O)O)CCN(CC(=O)O)CCN(CC(=O)O)CC1)C(=O)O)C(=O)O [gallium-68 labelled] — SUVmean (PET/CT; mouse, 22Rv1 xenograft, tumour; intravenous, 3.7 MBq, 4 h): 0.35 ± 0.02 SUV
CCCCCCCCCCCCCCCCCC(=O)N[C@@H](CCCNC(=N)N)C(=O)N[C@@H](CC(=O)N[C@@H](Cc1ccccc1)C(=O)O)c1cccc2ccccc12 — stability time (HPLC, mass spectrometry; human serum): 24 h
CC(C)[C@H](NC(=O)[C@@H](NC(=O)CCCc1cn(CC(O)CN2CCN(CC(=O)O)CCN(CC(=O)O)CCN(CC(=O)O)CC2)nn1)[C@@H](C)O)C(=O)N[C@@H](CCCNC(=N)N)C(=O)N[C@H](C(=O)N[C@@H](CO)C(=O)N[C@@H](C)C(=O)N[C@@H](CC(=O)O)C(=O)O)[C@@H](C)O (stereo partly drawn) — clearance (healthy male humans, plasma; intravenous bolus, 0.08 mmol/kg): 1.02 ± 0.19 mL/min/kg
Cc1ccc(CCNc2cc(=O)[nH]c(=O)[nH]2)cc1 — EC50 (GPR84; cAMP): 0.0129 µM
CC(C)C[C@H](NC(=O)C[C@H](O)[C@H](CC(C)C)NC(=O)[C@H](Cc1c[nH]cn1)NC(=O)CNC(=O)[C@@H](NC(=O)[C@H](C)NC(=O)[C@H](Cc1c[nH]c2ccccc12)NC(=O)[C@H](CCC(N)=O)NC(=O)[C@@H](Cc1ccccc1)NC(=O)COCCOCCNC(=O)CCC(C(=O)O)N1CCN(CC(=O)O)CCN(CC(=O)O)CC1)C(C)C)C(N)=O (stereo partly drawn) [lutetium-177 labelled] — tissue uptake (BALB/c nu/nu mice, female, carcass incl. GI tract contents; intravenous, 50 pmol, 24 h): 0.4 ± 0.2 %ID
Nc1ccn([C@@H]2O[C@H](COP(=O)(O)OP(=O)([O-])OP(=O)([O-])O)[C@@H](O)[C@H]2O)c(=O)n1.[Na+].[Na+] — inhibition (Nedd8-cullin1 interaction; neddylation, AlphaScreen; 100 µM): 45.1%
COc1ccccc1N1CCN(c2cc(=O)[nH]c(=O)[nH]2)CC1 — EC50 (GPR84; cAMP level, agonist; human cells): 0.0378 ± 0.0071 µM
COc1ccccc1OCC(O)CN1CCN(CC(=O)Nc2c(C)cccc2C)CC1 (stereo not drawn) — inhibition (Nedd8-cullin1 interaction; neddylation, AlphaScreen; 100 µM): 14.2%
CC(C)[C@H](NC(=O)[C@H](Cc1ccc(O)cc1)NC(=O)[C@H](Cc1ccc(O)cc1)NC(=O)[C@@H]1CCCN1C(=O)[C@H](CCC(=O)O)NC(=O)[C@H](CCC(=O)O)NC(=O)[C@H](Cc1c[nH]c2ccccc12)NC(=O)[C@@H]1CCCN1C(=O)[C@@H](NC(=O)[C@H](CCC(N)=O)NC(=O)c1ccc2c(c1)C(=O)OC21c2ccc(O)cc2Oc2cc(O)ccc21)C(C)C)C(=O)N[C@H](C(=O)N[C@@H](CCCCN)C(=O)N[C@@H](CCCCN)C(=O)N[C@@H](CO)C(=O)N[C@@H](CO)C(=O)NCC(=O)NCC(N)=O)C(C)C — plasma concentration (human, plasma; intravenous infusion, 189.6 mg, 0.25 h): 15100 ng/mL

Repeated from above:
CC(C)C[C@H](NC(=O)C[C@H](O)[C@H](CC(C)C)NC(=O)[C@H](Cc1c[nH]cn1)NC(=O)CNC(=O)[C@@H](NC(=O)[C@H](C)NC(=O)[C@H](Cc1c[nH]c2ccccc12)NC(=O)[C@H](CCC(N)=O)NC(=O)[C@@H](Cc1ccccc1)NC(=O)COCCOCCNC(=O)CCC(C(=O)O)N1CCN(CC(=O)O)CCN(CC(=O)O)CC1)C(C)C)C(N)=O (stereo partly drawn) [lutetium-177 labelled] — tissue uptake (BALB/c nu/nu mice, female, carcass incl. GI tract contents; intravenous, 50 pmol, 24 h): 0.4 ± 0.2 %ID
